Results from different studies.
Protocols differ between the studies behind these lines.

Compound = C[C@]1(CO)Cc2ncn(-c3ccc(C#N)c(Cl)c3)c2C(=O)O1; system = human, plasma; setting = 2 mg single dose, median; endpoint = tmax; result = 0.5 h
Compound = CNC(=O)n1ccc2cc(Oc3ccnc(NC(=O)c4ccc(C5CCN(CCO)CC5)cc4)c3)c(OCCOC)cc21; system = healthy human, plasma; setting = oral, 35 mg, added: high-fat meal; scale = reference: fasted; endpoint = tmax delay; result = ~1 h
Compound = COc1ccc2c(c1)[C@]13CCCC[C@@H]1[C@H](C2)N(C)CC3; system = human female; setting = day 22; scale = reference: day 0; endpoint = Tmax change; result = 22.4%
Compound = CC(=O)c1c(C)c2cnc(Nc3ccc(C4CCN(CCS(C)(=O)=O)CC4)cn3)nc2n(C2CCCC2)c1=O; system = human patients, plasma; setting = oral, 75 mg twice daily, day 1 single dose, added: fulvestrant; endpoint = Tmax; result = 1.25 h
Compound = N.N.O=C([O-])C1(C(=O)[O-])CCC1.[Pt+2]; assay = refers to: non-protein-bound platinum; system = human, plasma ultrafiltrate; setting = dose not given, median; endpoint = Tmax; result = 0.6 h
Compound = OCc1ncc2n1-c1ccc(Cl)cc1C(c1ccccc1F)=NC2; system = human, plasma; setting = 7.5 mg midazolam, day 12, median, added: amenamevir 400 mg; endpoint = Tmax; result = 0.5 h
Compound = Cc1nnc2n1-c1ccc(Cl)cc1C(c1ccccc1)=NC2; system = human female; setting = day 22; scale = reference: day 0; endpoint = Tmax change; result = 24.5%
Compound = COc1ccc(F)cc1C(=O)NCc1ccc(-c2nn([C@@H](C)C(F)(F)F)c(N)c2C(N)=O)cc1; system = human, plasma; setting = oral, 200 mg once daily, added: oral midazolam; endpoint = tmax; result = 3 h
Compound = O=C(O)C(O)(c1cccs1)c1cccs1; assay = refers to: metabolite; system = human, plasma; setting = oral, 10 mg once daily, 5 days, median; endpoint = Tmax; result = 5.5 h
Compound = Cn1nc(NS(C)(=O)=O)c2c(Cl)ccc(-n3c([C@H](Cc4cc(F)cc(F)c4)NC(=O)Cn4nc(C(F)F)c5c4C(F)(F)[C@@H]4C[C@H]54)nc4nc(OCCC(F)(F)F)ccc4c3=O)c21; system = human, plasma; setting = oral, 200 mg single dose, tablet, median; endpoint = tmax; result = 24 h
Compound = C[C@H](NC(=O)c1c(C(F)F)nn(C)c1Oc1cccc(C(F)(F)F)c1)c1ccc(C(=O)O)cc1; system = human, plasma; setting = 125 mg, cycle 1 day 8, median; endpoint = Tmax; result = 4.7 h
Compound = C=C(C)[C@@H]1CC[C@]2(NCCN3CCS(=O)(=O)CC3)CC[C@]3(C)[C@H](CC[C@@H]4[C@@]5(C)CC=C(C6=CC[C@@](COc7ncccc7C#N)(C(=O)O)CC6)C(C)(C)[C@@H]5CC[C@]43C)[C@@H]12; system = human, fed; setting = oral, 100 mg powder in bottle, median; endpoint = Tmax; result = 9 h
